Experimental data collected from several papers.
Protocols differ between the studies behind these lines. Several values in a cell are separate wells, animals, samples, runs or records. ± marks the error that the study gave.
Chain of UniProt P05177 (whole entry, looked up): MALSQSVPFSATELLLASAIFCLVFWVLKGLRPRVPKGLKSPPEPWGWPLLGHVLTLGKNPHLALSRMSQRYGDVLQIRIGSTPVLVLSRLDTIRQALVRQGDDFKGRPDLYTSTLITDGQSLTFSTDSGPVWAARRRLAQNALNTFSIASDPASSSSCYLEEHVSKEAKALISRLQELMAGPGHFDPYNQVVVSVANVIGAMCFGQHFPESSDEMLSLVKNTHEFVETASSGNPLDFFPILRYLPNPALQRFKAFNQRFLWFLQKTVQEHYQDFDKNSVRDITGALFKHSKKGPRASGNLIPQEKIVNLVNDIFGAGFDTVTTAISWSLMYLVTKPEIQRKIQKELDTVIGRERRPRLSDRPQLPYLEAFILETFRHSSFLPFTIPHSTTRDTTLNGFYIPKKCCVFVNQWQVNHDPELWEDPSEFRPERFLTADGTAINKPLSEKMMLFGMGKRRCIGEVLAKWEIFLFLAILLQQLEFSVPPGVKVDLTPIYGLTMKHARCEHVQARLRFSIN
Chain of UniProt P00761 (whole entry, looked up): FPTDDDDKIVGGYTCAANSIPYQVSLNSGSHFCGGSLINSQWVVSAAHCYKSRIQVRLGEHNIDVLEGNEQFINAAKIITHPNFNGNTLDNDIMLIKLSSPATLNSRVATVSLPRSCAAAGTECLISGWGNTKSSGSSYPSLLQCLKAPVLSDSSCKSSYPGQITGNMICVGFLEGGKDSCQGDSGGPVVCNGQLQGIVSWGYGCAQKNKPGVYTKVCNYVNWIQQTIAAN
Chain of UniProt P20813 (whole entry, looked up): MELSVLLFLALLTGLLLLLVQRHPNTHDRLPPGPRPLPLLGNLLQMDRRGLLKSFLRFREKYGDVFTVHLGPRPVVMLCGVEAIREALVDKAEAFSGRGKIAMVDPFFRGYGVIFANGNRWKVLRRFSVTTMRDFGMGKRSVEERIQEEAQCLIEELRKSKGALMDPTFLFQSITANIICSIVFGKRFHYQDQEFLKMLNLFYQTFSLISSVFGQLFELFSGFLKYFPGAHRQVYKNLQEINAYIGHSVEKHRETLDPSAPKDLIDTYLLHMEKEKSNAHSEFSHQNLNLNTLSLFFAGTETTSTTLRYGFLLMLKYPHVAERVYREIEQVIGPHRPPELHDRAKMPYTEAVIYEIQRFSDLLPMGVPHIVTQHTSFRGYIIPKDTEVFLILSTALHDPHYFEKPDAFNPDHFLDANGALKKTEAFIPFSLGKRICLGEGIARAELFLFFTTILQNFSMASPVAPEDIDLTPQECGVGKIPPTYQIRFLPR

SMILES | tested on | test | system | setting | how to read | measurement | result
C=C(NC(=O)c1csc(-c2nc3c(cc2O)-c2nc(cs2)C(=O)NC(C(C)O)C(=O)NC(=C(C)OC)c2nc(cs2)C(=O)NC2c4nc(cs4)C(=O)NC(COC(=O)c4c5c6c(cccc6n4O)COC(=O)C(OC4CC(C)(O)C(N(C)C)C(C)O4)C2OC5)c2nc-3cs2)n1)C(N)=O (stereo not drawn) |  |  | cynomolgus monkey, male, plasma | intravenous infusion, 3 mg/kg multiple doses, day 7 |  | Cmax | 12300 ng/mL
N#C[C@@H]1CC(F)(F)CN1C(=O)CNC(=O)c1ccnc2c(NC(=O)[C@H](CCCCNC(=O)CCOCCOCCOCCOCCOCCOCCNC(=O)CN3CCN(CC(=O)[O-])CCN(CC(=O)[O-])CCN(CC(=O)[O-])CC3)NC(=O)CCCc3ccc(I)cc3)cccc12.[177Lu+3] | U-87 MG tumour model |  | host not given, bone | 24 h, tumour-bearing |  | tracer uptake | 2.93 %ID/g
CN(C)c1cccc(-c2ccc(C3CCCCC3)cc2)c1 |  | liver microsome stability | dog liver microsomes | 1 µM |  | hepatic clearance | 27 mL/min/kg
Nc1nc2cc(C(=O)c3ccc(F)cc3)ccc2[nH]1 | Salmonella typhimurium | Ames preincubation test | TA100 | 19.5 µg per plate, 3 days, without S9 |  | revertants | 140 revertants per plate
Cc1cc(=O)c2c(O)c3c(O[C@@H]4O[C@H](CO)[C@@H](O)[C@H](O)[C@H]4O)cc(O)cc3cc2o1 | HepaRG co-cultured with HK-2 | MTT |  | 133.33 µM, 24 h | relative to: untreated control | cell viability | 83.8 ± 20.6%
NCc1ccc(NC(=O)c2cc(-c3ccccc3)n(-c3ccccc3)n2)cc1 | HeLa | cell growth or viability |  |  |  | CC50 | 38 µM
CC(C)Cc1ccc(C(C)C(=O)N[C@@H](CCCCNC(=O)CCOCCOCCOCCOCCOCCOCCNC(=O)CN2CCN(CC(=O)[O-])CCN(CC(=O)[O-])CCN(CC(=O)[O-])CC2)C(=O)Nc2cccc3c(C(=O)NCC(=O)N4CC(F)(F)C[C@H]4C#N)ccnc23)cc1.[177Lu+3] (stereo partly drawn) | U-87 MG tumour model |  | host not given, bone | 24 h, tumour-bearing |  | tracer uptake | 2.66 %ID/g
CCCCCCCCCCCCCCCC(=O)N[C@@H](CCC(=O)NCCCC[C@H](NC(=O)[C@H](CCC(N)=O)NC(=O)[C@H](Cc1c[nH]cn1)NC(=O)[C@@H](NC(=O)[C@H](CCCCN)NC(=O)[C@H](CC(=O)O)NC(=O)[C@H](CCSC)NC(=O)[C@H](C)NC(=O)[C@@H](NC(=O)[C@H](CO)NC(=O)[C@H](Cc1ccc(O)cc1)NC(=O)[C@H](CC(=O)O)NC(=O)[C@H](CO)NC(=O)[C@@H](NC(=O)[C@H](Cc1ccccc1)NC(=O)[C@@H](NC(=O)CNC(=O)[C@H](CCC(=O)O)NC(=O)[C@H](C)NC(=O)[C@H](Cc1ccc(O)cc1)NCC(F)(F)F)[C@@H](C)O)[C@@H](C)CC)[C@@H](C)CC)[C@@H](C)CC)C(=O)N[C@@H](CC(=O)O)C(=O)N[C@@H](Cc1ccccc1)C(=O)N[C@H](C(=O)N[C@@H](CC(N)=O)C(=O)N[C@@H](Cc1c[nH]c2ccccc12)C(=O)N[C@@H](CC(C)C)C(=O)N[C@@H](CC(C)C)C(=O)N[C@@H](C)C(=O)N[C@@H](CCC(N)=O)C(=O)N[C@@H](CCCCN)C(=O)NCC(=O)N[C@@H](CCCCN)C(=O)N[C@@H](CCCCN)C(=O)N[C@@H](CC(N)=O)C(=O)N[C@@H](CC(=O)O)C(=O)N[C@@H](Cc1c[nH]c2ccccc12)C(=O)N[C@@H](CCCCN)C(=O)N[C@@H](Cc1c[nH]cn1)C(=O)N[C@@H](CC(N)=O)C(=O)N[C@H](C(=O)N[C@H](C(=O)N[C@@H](CCC(N)=O)C(=O)O)[C@@H](C)O)[C@@H](C)CC)C(C)C)C(=O)O | Trypsin (Sus scrofa, UniProt P00761) | LC-MS, item: fragment 1-30 |  | 18 h, pH 8.0, 37 °C, added: trypsin 2.5 mg/mL |  | fragment formed | 7%
CC(C)OCCOCc1ccc(OCC(O)CN(N=O)C(C)C)cc1 (stereo not drawn) | Salmonella typhimurium | Ames test | TA98 | 50 µg/plate, 30 % rat S9 | relative to: solvent control | revertant fold increase | 0.8 fold
CC(=O)N[C@H](C(=O)N[C@H](C(=O)N[C@@H](CCCNC(=N)N)C(=O)N[C@@H](CC(N)=O)C(=O)N[C@@H](CC(=O)O)C(=O)N[C@H](C(=O)N1CCC[C@@H]1C(=O)N1CCC[C@H]1C(=O)N[C@@H](CC(=O)O)C(=O)N[C@@H](CO)C(=O)N[C@@H](CC(C)C)C(=O)N[C@@H](CC(C)C)C(=O)N[C@H](C(=O)N[C@@H](Cc1ccccc1)C(N)=O)C(C)C)C(C)C)[C@@H](C)O)C(C)C | HEK-293T | subcellular fractionation LC-MS | nuclear fraction | 20 µM, 24 h |  | peptide amount per protein | not detected
N#C[C@@H]1CC(F)(F)CN1C(=O)CNC(=O)c1ccnc2c(NC(=O)[C@@H](N)CCCCNC(=O)CCOCCOCCOCCOCCOCCOCCNC(=O)CN3CCN(CC(=O)[O-])CCN(CC(=O)[O-])CCN(CC(=O)[O-])CC3)cccc12.[177Lu+3] | U-87 MG tumour model |  | host not given, bone | 1 h, tumour-bearing |  | tracer uptake | 1.17 %ID/g
C=CC(=O)Nc1cc(Nc2nccc(-c3cn(C)c4ccccc34)n2)c(OCC(F)(F)F)nc1N(C)CCN(C)C | Cytochrome P450 2B6 (CYP2B6, Homo sapiens, UniProt P20813) | substrate |  | 3 µM, 60 min, 2B6 isoform, liver abundance-normalized |  | contribution to substrate depletion | 1.49%
COC(=O)CC[C@@H](NC(=O)[C@@H](Cc1ccc(OP(=O)(O)O)cc1)NC(=O)[C@@H](Cc1ccccc1)NC(=O)[C@@H](Cc1ccccc1)NC(=O)Cc1ccc2ccccc2c1)C(=O)OC | carboxylesterase | substrate |  | 200 µM, 1 h, pH 7.4, 37 °C, added: carboxylesterase 1 U/mL |  | ester hydrolysis | 19.4%
O=C(c1ccc([C@H]2[C@@H](F)[C@@H](F)C[C@@H](F)[C@H]2F)cc1)N1CCC(F)CC1 |  | liver microsome stability | mouse liver microsomes | 1 µM |  | hepatic clearance | 74 mL/min/kg
O=C(NC(c1ccccn1)c1ccccn1)c1cc(-c2ccccc2)n(-c2ccccc2)n1 | HeLa | cell growth or viability |  |  |  | CC50 | > 50 µM
CCN(CC)CC#CCNc1ccnc2cc(Cl)ccc12 | Salmonella typhimurium | mini-Ames test | TA97a | 125.0 µg/well, with rat liver S9 |  | revertants | 23 revertants/well and 4 revertants/well
CC(C)C[C@@H]1NC(=O)[C@H](CO)NC(=O)[C@H](CC(=O)O)NC(=O)[C@@H]2CCCN2C(=O)[C@H]2CCCN2C(=O)[C@H](C(C)C)NC(=O)[C@H](CC(=O)O)NC(=O)[C@H](CC(N)=O)NC(=O)[C@H](CCCNC(=N)N)NC(=O)[C@H]([C@@H](C)O)NC(=O)[C@H](C(C)C)NC(=O)CCNC(=O)CCNC(=O)[C@H](Cc2ccccc2)NC(=O)[C@H](C(C)C)NC(=O)[C@H](CC(C)C)NC1=O | HEK-293T | subcellular fractionation LC-MS | cytoplasmic fraction | 20 µM, 24 h |  | concentration | not detected
O=C(Nc1cnccc1-c1ccc([18F])cc1)c1ccnc(NC(=O)C2CC2)c1 |  | ex vivo biodistribution, gamma counting | GSK-3β overexpressing transgenic mouse, late stage, left kidney | intravenous, 120 min post-injection |  | mean SUV | 0.79
CC(C)CC(=O)Nc1ccc([C@H]2[C@@H](F)[C@@H](F)C[C@@H](F)[C@H]2F)cc1 |  | liver microsome stability | dog liver microsomes | 1 µM |  | hepatic clearance | 8.1 mL/min/kg
O=C1C2CC3CC1CC(C(=O)N1CCN(c4ccc([N+](=O)[O-])c5ncccc45)CC1)(C3)C2 | Salmonella typhimurium | Ames test | TA100 | 0.78 µg/well, without S9 | relative to: vehicle | revertant fold increase | 0.9
O=C(CC1CCOCC1)Nc1ccc([C@H]2[C@@H](F)[C@@H](F)C[C@@H](F)[C@H]2F)cc1 |  | liver microsome stability | dog liver microsomes | 1 µM |  | hepatic clearance | 7.3 mL/min/kg
COC(=O)Nc1nc2cc(C(O)c3ccc(F)cc3)ccc2[nH]1 (stereo not drawn) | Salmonella typhimurium | Ames preincubation test | TA1535 | 437.5 µg/plate, without S9 |  | revertants | 18.3 revertants/plate
Nc1ncc(-c2ccc([C@H]3[C@@H](F)[C@@H](F)C[C@@H](F)[C@H]3F)cc2)cn1 |  | liver microsome stability | mouse liver microsomes | 1 µM |  | hepatic clearance | 15 mL/min/kg
N#C[C@@H]1CC(F)(F)CN1C(=O)CNC(=O)c1ccnc2c(NC(=O)CCOCCOCCOCCOCCOCCOCCNC(=O)[C@H](CCCCNC(=O)CN3CCN(CC(=O)[O-])CCN(CC(=O)[O-])CCN(CC(=O)[O-])CC3)NC(=O)CCCc3ccc(I)cc3)cccc12.[177Lu+3] | U-87 MG tumour model |  | host not given, stomach | 48 h, tumour-bearing |  | tracer uptake | 0.11 %ID/g
O=C(c1ccc(C2CCCCC2)cc1)N1CCCC1 |  | hepatocyte stability | cryopreserved human hepatocytes | 1 µM |  | hepatic clearance | 18 mL/min/kg
O=C1NC2(CC2)COc2ncc(F)cc2[C@H]2COCCN2c2ccn3ncc1c3n2 | Salmonella typhimurium | Ames test | TA97a | 1500 µg/plate, 48 h, added: without S9 |  | revertant colonies | 82 ± 10 revertants/plate
CNC(=O)c1ccc(C2CCCCC2)cc1 |  | liver microsome stability | cynomolgus liver microsomes | 1 µM |  | hepatic clearance | 41 mL/min/kg
COc1cccc(OC)c1-c1cc(C(=O)NC2(C(=O)O)C3CC4CC(C3)CC2C4)nn1-c1ccc(C(=O)N(C)CCOCCN(C)C(=O)[C@H](CCCCNC(=O)[C@H](CC(C)C)NC(=O)C2OC2C(=O)O)NC(=O)CN2CCN(CC(=O)[O-])CCN(CC(=O)[O-])CCN(CC(=O)[O-])CC2)cc1C(C)C.[177Lu+3] (mixture of isomers) | HT-29 tumour model |  | host not given, pancreas | 24 h, tumour-bearing |  | tracer uptake | 0.5 %ID/g
CNC(=O)C1CCCN(C(=O)C2CC3CCC2N3C(=O)[C@@H]2C[C@@H](O)CN2C(=O)NCc2cccc(Cl)c2F)C1 (mixture of isomers) | Cytochrome P450 1A2 (CYP1A2, Homo sapiens, UniProt P05177) | preincubation without NADPH | human | 16.7 µM | relative to: negative control | remaining activity | 98.3% and 101% and 98.5%
F[C@@H]1[C@H](c2ccc(-c3ccc(N4CCCC4)nc3)cc2)[C@H](F)[C@H](F)C[C@@H]1F |  | liver microsome stability | dog liver microsomes | 1 µM |  | hepatic clearance | 25 mL/min/kg

For quick reference, copied from above:
SMILES | tested on | test | system | setting | how to read | measurement | result
O=C(c1ccc(C2CCCCC2)cc1)N1CCCC1 |  | hepatocyte stability | cryopreserved human hepatocytes | 1 µM |  | hepatic clearance | 18 mL/min/kg
O=C1NC2(CC2)COc2ncc(F)cc2[C@H]2COCCN2c2ccn3ncc1c3n2 | Salmonella typhimurium | Ames test | TA97a | 1500 µg/plate, 48 h, added: without S9 |  | revertant colonies | 82 ± 10 revertants/plate
Nc1nc2cc(C(=O)c3ccc(F)cc3)ccc2[nH]1 | Salmonella typhimurium | Ames preincubation test | TA100 | 19.5 µg per plate, 3 days, without S9 |  | revertants | 140 revertants per plate
